Assay results from different studies.
Parts stem from different laboratories: compare values within a part only.
Sequence of UniProt P49137 (whole entry, looked up): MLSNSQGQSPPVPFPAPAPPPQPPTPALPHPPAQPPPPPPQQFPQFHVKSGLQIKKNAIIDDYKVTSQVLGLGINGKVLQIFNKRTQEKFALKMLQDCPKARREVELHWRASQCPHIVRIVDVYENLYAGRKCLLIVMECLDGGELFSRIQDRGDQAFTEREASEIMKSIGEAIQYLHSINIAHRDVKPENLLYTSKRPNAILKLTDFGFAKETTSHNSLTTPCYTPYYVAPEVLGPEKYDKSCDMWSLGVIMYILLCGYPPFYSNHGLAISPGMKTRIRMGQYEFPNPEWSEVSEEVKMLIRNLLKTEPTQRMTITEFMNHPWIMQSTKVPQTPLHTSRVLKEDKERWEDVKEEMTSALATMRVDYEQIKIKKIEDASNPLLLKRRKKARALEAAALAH
Sequence of UniProt Q9NY57 (whole entry, looked up): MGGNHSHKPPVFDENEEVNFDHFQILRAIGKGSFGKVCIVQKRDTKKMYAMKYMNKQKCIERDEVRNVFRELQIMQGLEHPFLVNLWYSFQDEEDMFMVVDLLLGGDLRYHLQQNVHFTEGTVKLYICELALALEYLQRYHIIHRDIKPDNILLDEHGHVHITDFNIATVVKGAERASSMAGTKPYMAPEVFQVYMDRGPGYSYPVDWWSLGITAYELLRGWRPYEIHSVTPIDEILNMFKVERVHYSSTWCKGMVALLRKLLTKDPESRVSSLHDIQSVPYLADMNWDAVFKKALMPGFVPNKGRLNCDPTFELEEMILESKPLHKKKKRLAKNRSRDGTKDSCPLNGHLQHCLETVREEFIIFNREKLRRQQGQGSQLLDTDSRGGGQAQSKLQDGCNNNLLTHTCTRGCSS
Sequence of UniProt P78356 (whole entry, looked up): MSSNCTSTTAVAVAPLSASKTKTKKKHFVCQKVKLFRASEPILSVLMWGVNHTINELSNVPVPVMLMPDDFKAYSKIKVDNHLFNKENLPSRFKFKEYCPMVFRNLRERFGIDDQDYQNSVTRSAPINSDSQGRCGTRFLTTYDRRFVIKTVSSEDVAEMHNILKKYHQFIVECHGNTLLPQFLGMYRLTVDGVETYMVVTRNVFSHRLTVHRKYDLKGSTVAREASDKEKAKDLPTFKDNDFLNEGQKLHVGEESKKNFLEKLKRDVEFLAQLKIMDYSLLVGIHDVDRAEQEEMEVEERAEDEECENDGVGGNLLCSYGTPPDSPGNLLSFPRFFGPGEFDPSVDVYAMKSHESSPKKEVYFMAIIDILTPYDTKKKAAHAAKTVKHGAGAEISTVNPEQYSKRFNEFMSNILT
Sequence of UniProt P42679 (whole entry, looked up): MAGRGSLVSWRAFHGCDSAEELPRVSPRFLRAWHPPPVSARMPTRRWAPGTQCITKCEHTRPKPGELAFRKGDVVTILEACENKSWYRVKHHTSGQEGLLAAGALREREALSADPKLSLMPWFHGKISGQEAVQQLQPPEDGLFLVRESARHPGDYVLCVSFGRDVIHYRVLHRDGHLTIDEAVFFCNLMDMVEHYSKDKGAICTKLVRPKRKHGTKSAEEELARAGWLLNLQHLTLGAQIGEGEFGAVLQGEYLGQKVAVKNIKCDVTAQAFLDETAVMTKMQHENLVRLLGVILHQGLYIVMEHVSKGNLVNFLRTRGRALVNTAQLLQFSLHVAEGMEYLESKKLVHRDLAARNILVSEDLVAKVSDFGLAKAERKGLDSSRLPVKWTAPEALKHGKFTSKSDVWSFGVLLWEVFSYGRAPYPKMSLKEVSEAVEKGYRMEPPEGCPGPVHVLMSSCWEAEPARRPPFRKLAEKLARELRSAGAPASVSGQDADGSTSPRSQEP
Sequence of UniProt P07332 (whole entry, looked up): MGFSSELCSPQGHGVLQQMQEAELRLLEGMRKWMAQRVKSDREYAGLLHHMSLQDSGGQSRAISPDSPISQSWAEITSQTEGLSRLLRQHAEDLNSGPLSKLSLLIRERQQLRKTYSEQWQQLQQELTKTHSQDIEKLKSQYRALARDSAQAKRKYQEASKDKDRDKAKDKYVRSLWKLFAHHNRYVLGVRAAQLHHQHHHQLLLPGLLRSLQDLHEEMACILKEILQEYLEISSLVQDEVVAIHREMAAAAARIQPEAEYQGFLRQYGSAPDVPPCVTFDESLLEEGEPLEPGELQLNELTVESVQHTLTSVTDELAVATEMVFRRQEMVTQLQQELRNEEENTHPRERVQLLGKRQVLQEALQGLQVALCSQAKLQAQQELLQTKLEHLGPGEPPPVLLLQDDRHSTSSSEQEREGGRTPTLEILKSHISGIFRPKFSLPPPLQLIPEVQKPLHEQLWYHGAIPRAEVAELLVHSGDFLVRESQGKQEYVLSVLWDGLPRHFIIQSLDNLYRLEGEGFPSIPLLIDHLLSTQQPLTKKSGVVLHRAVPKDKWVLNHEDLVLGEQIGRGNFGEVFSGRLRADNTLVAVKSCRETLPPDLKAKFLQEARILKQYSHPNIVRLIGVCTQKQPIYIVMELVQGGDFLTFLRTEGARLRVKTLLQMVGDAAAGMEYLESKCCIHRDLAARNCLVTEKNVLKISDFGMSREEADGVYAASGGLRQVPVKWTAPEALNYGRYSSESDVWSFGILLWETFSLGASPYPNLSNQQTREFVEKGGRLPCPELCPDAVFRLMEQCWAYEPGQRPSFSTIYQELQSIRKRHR
Sequence of UniProt Q9UKE5 (whole entry, looked up): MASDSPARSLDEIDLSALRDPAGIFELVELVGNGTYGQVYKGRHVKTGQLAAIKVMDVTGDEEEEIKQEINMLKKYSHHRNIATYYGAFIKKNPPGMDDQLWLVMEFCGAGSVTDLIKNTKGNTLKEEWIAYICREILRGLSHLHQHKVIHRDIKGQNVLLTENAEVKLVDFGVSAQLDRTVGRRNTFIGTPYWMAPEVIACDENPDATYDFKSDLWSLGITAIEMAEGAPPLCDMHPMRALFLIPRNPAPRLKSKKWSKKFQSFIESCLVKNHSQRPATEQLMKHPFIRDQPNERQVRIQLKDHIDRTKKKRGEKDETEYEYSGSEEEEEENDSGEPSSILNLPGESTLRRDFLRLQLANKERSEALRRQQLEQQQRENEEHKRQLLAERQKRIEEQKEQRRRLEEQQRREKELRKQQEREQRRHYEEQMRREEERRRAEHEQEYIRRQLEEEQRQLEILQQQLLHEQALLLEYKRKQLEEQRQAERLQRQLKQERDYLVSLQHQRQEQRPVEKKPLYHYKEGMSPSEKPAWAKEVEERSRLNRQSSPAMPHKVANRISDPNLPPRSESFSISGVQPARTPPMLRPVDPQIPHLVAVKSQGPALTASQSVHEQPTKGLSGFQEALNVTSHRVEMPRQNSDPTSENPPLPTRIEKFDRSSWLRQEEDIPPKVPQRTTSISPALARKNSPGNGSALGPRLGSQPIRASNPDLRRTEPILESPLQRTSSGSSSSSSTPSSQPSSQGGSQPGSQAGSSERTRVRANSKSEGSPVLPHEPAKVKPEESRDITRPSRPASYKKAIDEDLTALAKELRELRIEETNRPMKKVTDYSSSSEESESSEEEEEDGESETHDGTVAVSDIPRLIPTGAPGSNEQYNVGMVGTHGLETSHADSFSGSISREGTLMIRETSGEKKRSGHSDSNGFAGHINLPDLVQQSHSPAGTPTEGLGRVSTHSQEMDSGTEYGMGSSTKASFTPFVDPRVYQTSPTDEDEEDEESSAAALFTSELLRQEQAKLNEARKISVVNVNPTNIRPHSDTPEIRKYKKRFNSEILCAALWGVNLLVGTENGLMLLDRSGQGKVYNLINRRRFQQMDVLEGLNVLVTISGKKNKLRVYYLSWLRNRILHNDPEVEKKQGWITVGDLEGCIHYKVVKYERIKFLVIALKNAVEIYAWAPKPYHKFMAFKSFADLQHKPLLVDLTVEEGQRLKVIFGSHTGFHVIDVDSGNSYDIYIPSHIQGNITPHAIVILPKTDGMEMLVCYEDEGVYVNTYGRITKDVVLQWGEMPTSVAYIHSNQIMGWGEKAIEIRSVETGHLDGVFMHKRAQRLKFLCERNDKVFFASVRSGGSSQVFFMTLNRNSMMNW
Sequence of UniProt Q96PF2 (whole entry, looked up): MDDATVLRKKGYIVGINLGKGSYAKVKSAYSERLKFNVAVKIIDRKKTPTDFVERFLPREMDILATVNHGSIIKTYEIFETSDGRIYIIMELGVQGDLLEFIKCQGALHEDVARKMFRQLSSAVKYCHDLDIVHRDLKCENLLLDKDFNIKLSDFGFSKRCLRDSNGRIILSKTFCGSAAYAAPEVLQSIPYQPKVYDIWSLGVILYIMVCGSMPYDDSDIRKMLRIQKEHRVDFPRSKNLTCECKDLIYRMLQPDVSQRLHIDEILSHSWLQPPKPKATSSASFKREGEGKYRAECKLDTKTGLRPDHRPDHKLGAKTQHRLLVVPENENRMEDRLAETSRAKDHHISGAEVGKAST
Sequence of UniProt P22612 (whole entry, looked up): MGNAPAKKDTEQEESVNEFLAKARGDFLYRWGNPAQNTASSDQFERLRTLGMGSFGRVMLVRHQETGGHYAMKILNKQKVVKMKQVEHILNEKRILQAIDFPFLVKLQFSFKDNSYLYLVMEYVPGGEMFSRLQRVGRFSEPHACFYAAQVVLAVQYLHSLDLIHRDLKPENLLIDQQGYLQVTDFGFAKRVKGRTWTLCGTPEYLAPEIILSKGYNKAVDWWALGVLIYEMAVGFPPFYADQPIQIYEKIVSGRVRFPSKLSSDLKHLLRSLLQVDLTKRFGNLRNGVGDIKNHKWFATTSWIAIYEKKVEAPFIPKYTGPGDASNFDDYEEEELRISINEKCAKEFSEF
Sequence of UniProt Q00534 (whole entry, looked up): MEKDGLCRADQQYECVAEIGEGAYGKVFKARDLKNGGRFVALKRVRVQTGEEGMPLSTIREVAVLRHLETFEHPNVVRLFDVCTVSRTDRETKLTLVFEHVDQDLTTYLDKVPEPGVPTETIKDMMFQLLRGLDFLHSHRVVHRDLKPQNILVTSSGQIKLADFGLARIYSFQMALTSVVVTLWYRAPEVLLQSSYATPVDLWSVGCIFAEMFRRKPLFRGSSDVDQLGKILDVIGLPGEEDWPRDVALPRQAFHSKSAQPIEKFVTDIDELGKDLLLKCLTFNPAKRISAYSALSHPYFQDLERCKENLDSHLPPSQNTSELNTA

Set 1 — species: mouse; matrix: microsomes or S9; concentration: 2 µM; time: 0.5 h; measurement: remaining compound
c1ccc(-c2ncn(CCn3nnc4ccccc43)c2-c2ccsc2)cc1: 2.67%
CC(C)(C)c1ccccc1NC(=O)c1ccc(NC(=O)Nc2ccccc2)s1: 19%
CC(=O)c1cccc(NC(=O)CN(C)S(=O)(=O)c2c(C)cc(C)cc2C)c1: 22.4%
CC(C)c1csc2nc(-c3cn(C)c(=O)[nH]c3=O)[nH]c(=O)c12: 48.3%
CCN(CC)Cc1ccc2c(c1)CN(C(=O)Nc1ccc(OC)cc1)CCO2: 2.12%
CCCSc1nc(OC)c(-c2ccccc2C)c(=O)n1C: 0.994%

Set 2 — concentration: 1 µM; measurement: remaining binding
SMILES: O=C(N1CCS(=O)(=O)CC1)N1C[C@H](c2ccc(OC(F)(F)F)cc2)C[C@H](c2nc(C3CC3)no2)C1
MAPKAPK2 (Homo sapiens, UniProt P49137); cell-free assay, competition with immobilised ligand: 100%
MELK (Homo sapiens, UniProt Q14680); cell-free assay, competition with immobilised ligand: 100%
ULK2 (Homo sapiens, UniProt Q8IYT8); cell-free assay, competition with immobilised ligand: 75%
FES (Homo sapiens, UniProt P07332); cell-free assay, competition with immobilised ligand: 100%
MAP2K7 (Homo sapiens, UniProt O14733); cell-free assay, competition with immobilised ligand: 100%
Insulin receptor (INSR, Homo sapiens, UniProt P06213); cell-free assay, competition with immobilised ligand: 94%
CDK2 (Homo sapiens, UniProt P24941); cell-free assay, competition with immobilised ligand: 100%
STK36 (Homo sapiens, UniProt Q9NRP7); cell-free assay, competition with immobilised ligand: 100%
SIK1 (Homo sapiens, UniProt P57059); competition binding: 99%
IRAK4 (Homo sapiens, UniProt Q9NWZ3); cell-free assay, competition with immobilised ligand: 80%
PIP4K2B (Homo sapiens, UniProt P78356); cell-free assay, competition with immobilised ligand: 73%
ALK (Homo sapiens, UniProt Q9UM73); cell-free assay, competition with immobilised ligand: 100%
STK17A (Homo sapiens, UniProt Q9UEE5); cell-free assay, competition with immobilised ligand: 100%
PRKCH (Homo sapiens, UniProt P24723); cell-free assay, competition with immobilised ligand: 100%
TNIK (Homo sapiens, UniProt Q9UKE5); cell-free assay, competition with immobilised ligand: 75%
LIM domain kinase 1 (LIMK1, Homo sapiens, UniProt P53667); cell-free assay, competition with immobilised ligand: 100%
MATK (Homo sapiens, UniProt P42679); cell-free assay, competition with immobilised ligand: 100%
STK32B (Homo sapiens, UniProt Q9NY57); cell-free assay, competition with immobilised ligand: 100%
FLT3 (Homo sapiens, UniProt P36888, F691L/ITD); cell-free assay, competition with immobilised ligand: 93%
CDK13 (Homo sapiens, UniProt Q14004); cell-free assay, competition with immobilised ligand: 100%
IGF1R (Homo sapiens, UniProt P08069); cell-free assay, competition with immobilised ligand: 100%
EGFR (Homo sapiens, UniProt P00533, L858R/T790M); cell-free assay, competition with immobilised ligand: 59%
ACVR2B (Homo sapiens, UniProt Q13705); binding, competition with immobilised ligand: 86%
MAPKAPK5 (Homo sapiens, UniProt Q8IW41); cell-free assay, competition with immobilised ligand: 94%

Set 3 — cell line: A-375; concentration: 100 µM; time: 18 h; measurement: viability
CS(=O)(=O)c1ccc([C@@H](O)[C@@H](CO)NC(=O)C(Cl)Cl)cc1: 105%
CC(C)(C#N)c1cc(Cn2cncn2)cc(C(C)(C)C#N)c1: 90.5%
NC(=O)NS(=O)(=O)c1ccc(N)cc1: 99.6%
O=C(O)c1cc(O)c2c(c1)[C@H]([C@H]1c3cc(C(=O)O)cc(O)c3C(=O)c3c(O[C@@H]4O[C@H](CO)[C@@H](O)[C@H](O)[C@H]4O)cccc31)c1cccc(O[C@@H]3O[C@H](CO)[C@@H](O)[C@H](O)[C@H]3O)c1C2=O: 83%
CC(=O)O[C@H]1C(=O)[C@@]2(C)[C@H]([C@H](OC(=O)c3ccccc3)[C@]3(O)C[C@H](OC(=O)[C@H](O)[C@@H](NC(=O)c4ccccc4)c4ccccc4)C(C)=C1C3(C)C)[C@]1(OC(C)=O)CO[C@@H]1C[C@@H]2O: 64.9%
COC(=O)/C=C/C(=O)OC: 102%
CCC(=O)OCC(=O)[C@@]1(OC(=O)CC)[C@@H](C)C[C@H]2[C@@H]3CCC4=CC(=O)C=C[C@]4(C)[C@@]3(Cl)[C@@H](O)C[C@@]21C: 82.5%
COC(=O)C1=CO[C@@H](O[C@@H]2O[C@H](CO)[C@@H](O)[C@H](O)[C@H]2O)[C@@H]2C(CO)=CC[C@H]12: 98.6%
COc1cc(CCC(=O)O)ccc1O: 80.6%
Cc1oncc1C(=O)Nc1ccc(C(F)(F)F)cc1: 51%
COc1cc2nccc(Oc3ccc(NC(=O)NC4CC4)c(Cl)c3)c2cc1C(N)=O: 88.8%

Set 4 — read-out: enzyme activity; mode: inhibitor; concentration: 0.5 µM; baseline: control; measurement: remaining activity
Compound: N#CC(c1ccnc(NCCc2cccnc2)n1)c1nc2ccccc2s1 (stereo not drawn)
EPHA4 (Homo sapiens, UniProt P54764): 104%
WNK3 (Homo sapiens, UniProt Q9BYP7): 81.3%
EPHB4 (Homo sapiens, UniProt P54760): 99.7%
TSSK2 (Homo sapiens, UniProt Q96PF2): 102%
PDPK1 (Homo sapiens, UniProt O15530): 95.9%
Cyclin-dependent kinase 6, with cyclin D3 (CDK6, Homo sapiens, UniProt Q00534): 94.6%
PRKACG (Homo sapiens, UniProt P22612): 101%

For quick reference, copied from above (set 2):
FLT3 (Homo sapiens, UniProt P36888, F691L/ITD); cell-free assay, competition with immobilised ligand: 93%
PRKCH (Homo sapiens, UniProt P24723); cell-free assay, competition with immobilised ligand: 100%
IGF1R (Homo sapiens, UniProt P08069); cell-free assay, competition with immobilised ligand: 100%
ALK (Homo sapiens, UniProt Q9UM73); cell-free assay, competition with immobilised ligand: 100%
STK32B (Homo sapiens, UniProt Q9NY57); cell-free assay, competition with immobilised ligand: 100%
